Measured values pooled from the literature.
Each line is one published result; not all experiments were run side by side. Numbers after ± are the reported error.
AMY2: Pancreatic alpha-amylase (AMY2, Sus scrofa, UniProt P00690)

For `Oc1ccc([C@H]2Oc3c(c(O)cc(O)c3[C@H]3c4c(O)cc(O)cc4O[C@H](c4ccc(O)c(O)c4)[C@@H]3O)[C@H](c3c(O)cc(O)c4c3O[C@H](c3ccc(O)c(O)c3)[C@H](O)C4)[C@H]2O)cc1`, the IC50 was 6300 ± 600 nM (alpha-glucosidase (Bacillus stearothermophilus); inhibitor; 20 min, pH 6.8, 60 °C, added: pNPG substrate).
`CNC(=O)C1CCN(c2cc(C)c(F)cc2NC(=O)c2ccc(-c3c(C)ccc4[nH]ncc34)c(C)c2)CC1` has an IC50 of 4580 nM (Tyrosine-protein kinase Fgr (FGR, Homo sapiens, UniProt P09769); target engagement in cells, BRET).
For `O=C(NO)c1ccc(CN2c3ccccc3Oc3ccc(C(=O)Nc4ccc(C(=O)c5ccccc5)cc4)cc32)cc1`, the IC50 was 6820 ± 140 nM (Histone deacetylase 4 (HDAC4, Homo sapiens, UniProt P56524); enzyme activity, inhibitor).
For `CC[C@H](C)[C@@H]1NC(=O)[C@H](C)NC(=O)CNC(=O)c2cc3cc(c2)C(=O)NC[C@@H](C(=O)NCCC(=O)NCCC(=O)N[C@@H](CCCCN)C(N)=O)NC(=O)[C@H](CCCNC(=N)N)NC(=O)[C@@H](CCCNC(=N)N)NC(=O)[C@H](CCCNC(=N)N)NC(=O)[C@H](Cc2ccc4ccccc4c2)NC(=O)[C@H](Cc2ccccc2)NC(=O)[C@H](CNC3=O)NC(=O)[C@H](C)NC(=O)[C@H](C)NC1=O`, the IC50 was 16000 ± 2000 nM (NF-kappa-B essential modulator, with IKK-beta (IKBKG, Homo sapiens, UniProt Q9Y6K9); inhibitor, HTRF).
The IC50 of `COc1cc(O)ccc1CC[C@@H](c1ccc(O)cc1)c1cc2c(c(C)c1O)O[C@@H](c1ccc(O)cc1)CC2` is reported as 1700 nM (Polyunsaturated fatty acid 5-lipoxygenase (ALOX5, Homo sapiens, UniProt P09917); 5-LO product formation; human PMNL; added: A23187).
The IC50 of `N#Cc1ccc(N(CCc2c(F)cc(OS(N)(=O)=O)cc2F)n2cnnc2)cc1` is reported as 100 to 1000 nM (Steryl-sulfatase (STS, Homo sapiens, UniProt P08842); enzyme activity, inhibitor; JEG-3 intact monolayers).
`CCCC1CCC(c2ccc(C(=O)NC(C(=O)O)C(C)C)cc2)CC1` (stereo not drawn) has an IC50 of 340 nM (Sodium channel protein type 9 subunit alpha (SCN9A, Homo sapiens, UniProt Q15858); ion current, inhibitor).
`CC1(C)CC[C@]2(C)CC[C@]3(C)[C@H]([C@@H](O)C[C@@H]4[C@@]5(C)CCCC(C)(C)[C@@H]5CC[C@]43C)[C@@H]2C1` gave an IC50 of > 100000 nM (α-glucosidase Saccharomyces cerevisiae; added: p-nitrophenyl glucoside).
The IC50 of `CCNC(=O)[C@H]1O[C@@H](n2cnc3c(NCCOCCOCCNC(=O)CCCCCNC(=O)COc4ccc(/C=C/C5=[N+]6C(=Cc7ccc(-c8cccs8)n7[B-]6(F)F)C=C5)cc4)ncnc32)[C@H](O)[C@@H]1O` is reported as 589 nM (Adenosine receptor A1 (ADORA1, Homo sapiens, UniProt P30542); ligand displacement in cells, radioligand).
`COc1ccccc1-c1cccc(C(=O)N(C)Cc2cc(C3CC3)on2)c1` has an IC50 of > 50000 nM (Acetyl-CoA synthetase (Cryptococcus neoformans, UniProt J9VFT1)).
With `O=C(NO)C1=CCCC1` the IC50 was 147 ± 15 nM (Polyamine deacetylase HDAC10 (hdac10, Danio rerio, UniProt F1QCV2)).
The IC50 of `CNC(=O)c1ccccc1Oc1nc(Nc2cc(OC)c(OC)c(OC)c2)ncc1Br` is reported as 87 nM (NUAK family SNF1-like kinase 1 (NUAK1, Homo sapiens, UniProt O60285); enzyme activity, inhibitor).
For `N#Cc1c(N2CCOCC2)nc(NCCCN2CCOCC2)c2c1CCN(Cc1ccccc1)C2`, the IC50 was 28100 ± 700 nM (DNA gyrase subunit B (gyrB, Escherichia coli, UniProt P0AES6); enzyme activity, inhibitor).
With `Cc1ccc2oc(-c3c4c(N)n[nH]c(=O)c4nn3-c3ccc(NC(=O)/C=C/CN(C)C)cc3)c(C)c2c1` the IC50 was > 1000 nM (Vascular endothelial growth factor receptor 1 (FLT1, Homo sapiens, UniProt P17948); enzyme activity, inhibitor, ELISA).
`CCc1ccccc1OS(=O)(=O)C1CC2OC1C(c1ccc(O)cc1)=C2c1ccc(O)cc1` (racemic) has an IC50 of 3210 nM (Estrogen receptor beta (ESR2, Homo sapiens, UniProt Q92731); reporter gene, antagonist, luciferase).
For `C/C(=N\N(c1ccccc1)c1ccccc1)c1ccc(O)cc1`, the IC50 was 4440 nM (Estrogen receptor (ESR1, Homo sapiens, UniProt P03372); coactivator recruitment, antagonist).
For `Cc1nnc(NC(=O)CSc2nnc(-c3ccc4c(c3)OCCO4)o2)s1`, the IC50 was 303 nM (Cyclin-dependent kinase 4 (CDK4, Homo sapiens, UniProt P11802); enzyme activity, inhibitor, ADP detection).
`O=[N+]([O-])c1ccc(-c2cs/c(=N/N=C/c3ccc(N4CCOCC4)cc3)n2C2CCCCC2)cc1` gave an IC50 of 20400 nM (Carbonic anhydrase 2 (CA2, Bos taurus, UniProt P00921); enzyme activity, inhibitor, absorbance).
`CCOC(=O)C(CC)NC(=O)CN1C(=O)S/C(=C\c2ccc(OC)cc2)C1=O` (stereo not drawn) has an IC50 of > 100000 nM (α-amylase; enzyme activity, DNSA colorimetric).
`COc1ncc2nc(C)n(Cc3ncc(S(N)(=O)=O)cc3F)c2c1-c1ccccc1` gave an IC50 of 0.63 nM (Ectonucleotide pyrophosphatase/phosphodiesterase family member 1 (ENPP1, Homo sapiens, UniProt P22413); enzyme activity, inhibitor, AMP-Glo; added: 2',3'-cGAMP substrate).
`CN(C(=O)c1ccn2ncc(-c3ccc(C(N)=O)cc3)c2c1)c1ccc(C#N)cn1` has an IC50 of > 30000 nM (Cathepsin D (CTSD, Homo sapiens, UniProt P07339); enzyme activity, inhibitor).
`COc1cc(C(=O)NCCCNC(=O)c2ccc(F)nc2)ccc1NC(=O)C1NC(CC(C)(C)C)C(C#N)(c2ccc(Cl)cc2F)C1c1cccc(Cl)c1F` (stereo not drawn) gave an IC50 of 160 nM (E3 ubiquitin-protein ligase Mdm2 (MDM2, Homo sapiens, UniProt Q00987); ligand displacement, FP).
For `CC(=O)OCCc1ccc(O)c(O)c1`, the IC50 was > 500000 nM (AMY2; enzyme activity, inhibitor).
`CC12CC3CC(C1)CC(NC(=O)NC1CCC(Oc4ccc(C(=O)O)cc4)CC1)(C3)C2` (stereo not drawn) gave an IC50 of 2 nM (Bifunctional epoxide hydrolase 2 (Ephx2, Mus musculus, UniProt P34914); enzyme activity, inhibitor, fluorescence).
The IC50 of `CCOC(=O)c1ccc2c(c1)n(CC)[c]([Au-]([Cl])([Cl])[Cl])[n+]2CC` is reported as 332 nM (Thioredoxin reductase (trxB, Escherichia coli, UniProt P0A9P4); enzyme activity, inhibitor, absorbance; with preincubation).
`COc1cc(O)c(C(=O)/C=C/c2ccccc2)c(O)c1OC` has an IC50 of > 10 µg/mL (α-glucosidase (Saccharomyces cerevisiae); inhibitor; added: pNPG).
The IC50 of `O=C(O)c1cccc(S(=O)(=O)NC2CC2)c1` is reported as 1320 nM (Ectonucleoside triphosphate diphosphohydrolase 3 (Homo sapiens, UniProt O75355); enzyme activity, inhibitor, absorbance).
The IC50 of `COc1ccc(C2NC(=O)NC(C)=C2C(C)=O)cc1` (stereo not drawn) is reported as 141000 nM (AMY2; enzyme activity, inhibitor).
For `C#CC(=O)Nc1ccc2nc(NCCCCCN(C)C)nc(NCCCCCCN(C)C)c2c1`, the IC50 was 31000 ± 11800 nM (Histone-lysine N-methyltransferase SETDB1, triple tudor domain (SETDB1, Homo sapiens, UniProt Q15047, C385A); binding, TR-FRET displacement; 1 h, room temperature).
For `O=C(Nc1ccc(I)cc1)N1CCC(n2c(=O)[nH]c3c(Br)cccc32)CC1`, the IC50 was 300 nM (N-glycosylase/DNA lyase (OGG1, Homo sapiens, UniProt O15527); enzyme activity, inhibitor).
`CC(C)NC(=O)N1CCC=C(c2cc3c(Nc4cc5ncsc5cc4F)ncnc3s2)C1` has an IC50 of 9 nM (Receptor-interacting serine/threonine-protein kinase 2 (RIPK2, Homo sapiens, UniProt O43353); enzyme activity, inhibitor).
For `C[C@@]12CC[C@@H]3c4cc(Cl)c(O)cc4CC[C@H]3[C@@H]1CCC2=O`, the IC50 was 2100 nM (Aldo-keto reductase family 1 member C2 (AKR1C2, Homo sapiens, UniProt P52895); enzyme activity, inhibitor, absorbance; pH 9).
`CC(=O)OCCN(c1ccccc1Oc1ccc(C)cc1)S(=O)(=O)c1ccc(N)cc1` gave an IC50 of 1780 nM (Steroid hormone receptor ERR1 (ESRRA, Homo sapiens, UniProt P11474); transcriptional activity, inhibitor, mammalian two-hybrid reporter; HEK293T; 48 h, GAL4-LBD fusion).
